Published values of several laboratories.
Each line is one published result; not all experiments were run side by side. ± marks the error that the study gave.

Structure (SMILES) | assay | system | setting | scale | measurement | result
Clc1ccc(NN=C(c2ccccc2)c2ccccn2)nc1 | – | nude mouse, H358 xenograft | intraperitoneal, 110 mg/kg | baseline: vehicle | tumour weight | decreased
CCOP(=O)(CC(=O)Nc1ccc(S(=O)(=O)N(CC(N)=O)c2ccc(N(CC(N)=O)S(=O)(=O)c3ccc(OC)cc3)c3ccccc23)cc1)OCC | Western blot | APP/PS1 mice, hippocampus and frontal cortex | 40 mg/kg | baseline: untreated APP/PS1 mice | GPX4 protein level | increased
C=C1C(=O)OC2CC3=C[C@@H](C/C(C)=C/C(OC(=O)Cc4cccc5ccccc45)[C@H]12)OC3=O (stereo partly drawn) | immunohistochemistry | SCID mouse, MDA-MB-231 xenograft, lung | dose not given, 71 days after cell injection | – | Ki67 and VEGF expression | inhibited
CCCC[C@H](NC(=O)[C@@H](NC(=O)[C@H](CC(=O)O)NC(=O)[C@H](CCC(N)=O)NC(=O)[C@H](CC(C)C)NC(=O)[C@H](CC(C)C)NC(=O)[C@H](CCCN)NC(=O)[C@H](CCCNC(=N)N)NC(=O)[C@H](C)NC(=O)[C@H](CO)NC(=O)[C@H](CC(C)C)NC(=O)[C@H](CCC(N)=O)NC(=O)[C@H](CC)NC(=O)[C@H](CC(C)C)NC(=O)[C@@H](NC(=O)[C@H](CCCN)NC(=O)[C@H](CCCNC(=N)N)NC(=O)[C@H](Cc1ccc(O)cc1)NC(=O)[C@H](CO)NC(=O)[C@H](CCC(N)=O)NC(=O)[C@@H](NC(=O)[C@H](Cc1ccccc1)NC(=O)[C@@H](NC(=O)[C@H](C)NC(=O)[C@H](CC(=O)O)NC(=O)[C@H](C)NC(=O)[C@H](Cc1ccc(O)cc1)NC)[C@@H](C)CC)[C@@H](C)O)C(C)C)[C@@H](C)CC)C(=O)N[C@@H](CC(=O)O)C(=O)NCCCCNC(=N)N | GH release, ELISA | male Sprague-Dawley rat, anaesthetised, serum | subcutaneous, 3 µg/kg, 0 min | – | serum GH level | 25.3 ± 3.9 ng/mL
COC(=O)c1ccc(-n2nc(C(F)(F)F)cc2-c2cc(OC)c(OC)c(OC)c2)cc1 | tubulin polymerisation, inhibitor, absorbance | – | – | – | IC50 | 39 µM
COc1ccc(C2CC(c3ccc(C)cc3)=Nc3ccccc3S2)cc1 (stereo not drawn) | oral glucose tolerance test | fasted normal rat, blood | oral, 10 mg/kg, 0 min, with: oral glucose 3 g/kg | – | blood glucose | 103 ± 4.03 mg/dL
O=C(N[C@H]1CNC1=O)OCCCCC1CCCCC1 | in vivo efficacy | mouse EAE model | dose not given | – | EAE disease score | no effect
CCCCCCCOC(=O)Cc1c(C)n(C(=O)c2ccc(Cl)cc2)c2ccc(OC)cc12 | – | BALB/c mice, acetic acid writhing | intraperitoneal, 30 mg/kg, 20 min count | – | writhing count | 6.33 ± 1.78
Cc1ncc([N+](=O)[O-])n1CCOCc1nnc(SCC(=O)c2ccc(Br)cc2)o1 | – | – | 100 µg/mL, 45 min | – | DPPH scavenging | 42.71 ± 0.25%
CCNC(=O)[C@@H]1CCCN1C(=O)[C@H](CCCNC(=N)N)NC(=O)[C@H](CC(C)C)NC(=O)[C@@H](CC(C)C)NC(=O)[C@H](Cc1ccc(O)cc1)NC(=O)[C@H](CO)NC(=O)[C@H](Cc1c[nH]c2ccccc12)NC(=O)[C@H](Cc1c[nH]cn1)NC(=O)[C@@H]1CCC(=O)N1 | – | Sprague-Dawley rat, serum | subcutaneous, 100 µg/kg/day, 35 days | – | time to castration testosterone | 2 days
CC[C@H]1[C@@H](O)[C@@H]2[C@H](CC[C@]3(C)[C@@H]([C@H](C)CCOS(=O)(=O)[O-])CC[C@@H]23)[C@@]2(C)CC[C@@H](O)C[C@@H]12.[Na+] | – | ob/ob NASH mouse, liver | 10 mg/kg, 8 weeks | baseline: baseline | reduction of fibrosis stage | ~1 points
COc1ccc(-c2nnc(COc3cc(-c4nc5ccccc5s4)ccc3OC)o2)cc1OC | actophotometer | mouse | 100 mg/kg, 5 min | baseline: before treatment | locomotor activity reduction | 2.68%
CCCC[C@H](NC(=O)[C@@H](NC(=O)[C@H](CC(=O)O)NC(=O)[C@H](CCC(N)=O)NC(=O)[C@H](CC(C)C)NC(=O)[C@H](CC(C)C)NC(=O)[C@H](CCCN)NC(=O)[C@H](CCCNC(=N)N)NC(=O)[C@H](C)NC(=O)[C@H](CO)NC(=O)[C@H](CC(C)C)NC(=O)[C@H](CCC(N)=O)NC(=O)[C@H](CC)NC(=O)[C@H](CC(C)C)NC(=O)[C@@H](NC(=O)[C@H](CCCN)NC(=O)[C@H](CCCNC(=N)N)NC(=O)[C@H](Cc1ccc(O)cc1)NC(=O)[C@H](CO)NC(=O)[C@H](CCC(N)=O)NC(=O)[C@@H](NC(=O)[C@H](Cc1ccccc1)NC(=O)[C@@H](NC(=O)[C@H](C)NC(=O)[C@H](CC(=O)O)NC(=O)[C@@H](C)NC(=O)CCc1ccc(O)cc1)[C@@H](C)CC)[C@@H](C)O)C(C)C)[C@@H](C)CC)C(=O)N[C@@H](CC(=O)O)C(=O)N[C@@H](CCCNC(=N)N)C(=O)NC | GH release, ELISA | male Sprague-Dawley rat, anaesthetised, serum | subcutaneous, 3 µg/kg, 30 min | – | serum GH level | 121 ± 8.4 ng/mL
C=CC(=O)N1C[C@H](C)N(c2nc(OC[C@@]34CCCN3C[C@H](F)C4)nc3c(F)c(-c4ccc(F)c5sc(N)c(C#N)c45)c(C(F)(F)F)cc23)C[C@H]1C | – | mouse MIA PaCa-2 xenograft | oral, 3 mg/kg daily, 28 days | – | tumour growth inhibition | 99%
CCCC[C@H](NC(=O)[C@@H](NC(=O)[C@H](CC(=O)O)NC(=O)[C@H](CCC(N)=O)NC(=O)[C@H](CC(C)C)NC(=O)[C@H](CC(C)C)NC(=O)[C@H](CCCN)NC(=O)[C@H](CCCNC(=N)N)NC(=O)[C@H](C)NC(=O)[C@H](CO)NC(=O)[C@H](CC(C)C)NC(=O)[C@H](CCC(N)=O)NC(=O)[C@H](CC)NC(=O)[C@H](CC(C)C)NC(=O)[C@@H](NC(=O)[C@H](CCCN)NC(=O)[C@H](CCCNC(=N)N)NC(=O)[C@H](Cc1ccc(O)cc1)NC(=O)[C@H](CO)NC(=O)[C@H](CC(N)=O)NC(=O)[C@@H](NC(=O)[C@H](Cc1c(F)c(F)c(F)c(F)c1F)NC(=O)[C@@H](NC(=O)[C@H](C)NC(=O)[C@H](CC(=O)O)NC(=O)[C@@H](C)NC(=O)CCc1ccc(O)cc1)[C@@H](C)CC)[C@@H](C)O)C(C)C)[C@@H](C)CC)C(=O)N[C@@H](CO)C(=O)N[C@@H](CCCNC(=N)N)C(=O)NCCCC(N)=O | GH release, ELISA | male rat, anaesthetised, serum | intravenous, 1 µg/kg, 0 min | – | serum GH level | 59.9 ± 15.9 ng/mL
O=c1c(OCc2ccccc2)c(-c2ccc([N+](=O)[O-])cc2)oc2ccccc12 | – | diabetic rat | 7.5 mg/kg, 28 days, p-nitrophenyl β-glucoside induced | – | serum total cholesterol | 154 ± 4.85 mg/dL
COc1c2c(cc3oc(CO)cc(=O)c13)O[C@H](C(C)(C)O)C2 | – | mouse, xylene ear edema | oral, 2 mg/kg | – | ear edema weight increase | 3.7 ± 0.29 mg

Structure (SMILES) | assay | system | setting | scale | measurement | result
CCCC[C@H](NC(=O)[C@@H](NC(=O)[C@H](CC(=O)O)NC(=O)[C@H](CCC(N)=O)NC(=O)[C@H](CC(C)C)NC(=O)[C@H](CC(C)C)NC(=O)[C@H](CCCN)NC(=O)[C@H](CCCNC(=N)N)NC(=O)[C@H](C)NC(=O)[C@H](CO)NC(=O)[C@H](CC(C)C)NC(=O)[C@H](CCC(N)=O)NC(=O)[C@H](CC)NC(=O)[C@H](CC(C)C)NC(=O)[C@@H](NC(=O)[C@H](CCCN)NC(=O)[C@H](CCCNC(=N)N)NC(=O)[C@H](Cc1ccc(O)cc1)NC(=O)[C@H](CO)NC(=O)[C@H](CCC(N)=O)NC(=O)[C@@H](NC(=O)[C@H](Cc1ccccc1)NC(=O)[C@@H](NC(=O)[C@H](C)NC(=O)[C@H](CC(=O)O)NC(=O)[C@@H](C)NC(=O)[C@H](Cc1ccc(O)cc1)NC)[C@@H](C)CC)[C@@H](C)O)C(C)C)[C@@H](C)CC)C(=O)N[C@@H](CC(=O)O)C(=O)N[C@@H](CCCNC(=N)N)C(=O)NCC | GH release, ELISA | male Sprague-Dawley rat, anaesthetised, serum | subcutaneous, 3 µg/kg, 30 min | – | serum GH level | 126 ± 15.8 ng/mL
CN1CCC[C@]1(C)/C=C/S(=O)(=O)NC(=O)Nc1c2c(cc3c1CCC3)CCC2 | IL-1β release | human, whole blood ex vivo | oral, 12.5 mg, 12 h after last dose, multiple ascending dose, with: LPS and ATP | – | inhibition | ~90%
CCc1nc(-c2ccc(-c3ccc(CCC(N)(CO)CO)cc3)cc2)co1 | – | Sprague-Dawley rat, peripheral blood lymphocytes | oral, 3 mg/kg, single dose | – | maximal inhibition of PBLs | 71%
Cc1cc2c(cc1C1(c3ncc(C(=O)O)cn3)CC1)C(C)(C)CCC2(C)C | RNA sequencing, refers to: Acot1 mRNA | rat, brain | dose not given, 24 h, single dose | baseline: vehicle | log2 fold change | -0.65
CN(C)c1ccc(-c2oc3ccccc3c(=O)c2OCc2ccccc2)cc1 | – | diabetic rat | 5 mg/kg, p-nitrophenyl β-glucoside induced | – | serum alanine aminotransferase | 36.3 ± 2.4 IU
CCCCCCCCCCCCCCCC(=O)N[C@@H](CCC(=O)NCCCC[C@H](NC(=O)[C@H](CC(=O)O)NC(=O)[C@H](CO)NC(=O)[C@@H](NC(=O)[C@H](Cc1ccccc1)NC(=O)[C@@H](NC(=O)CNC(=O)[C@H](CCC(N)=O)NC(=O)[C@H](CO)NC(=O)[C@@H](N)Cc1c[nH]cn1)[C@@H](C)O)[C@@H](C)O)C(=O)N[C@@H](CO)C(=O)N[C@@H](CCC(=O)O)C(=O)N[C@@H](Cc1ccc(O)cc1)C(=O)N[C@@H](CC(C)C)C(=O)N[C@@H](CC(=O)O)C(=O)N[C@@H](CO)C(=O)N[C@@H](CCC(=O)O)C(=O)N[C@@H](CCCNC(=N)N)C(=O)N[C@@H](C)C(=O)N[C@@H](CCCNC(=N)N)C(=O)N[C@@H](CC(=O)O)C(=O)N[C@@H](Cc1ccccc1)C(=O)N[C@H](C(=O)N[C@@H](C)C(=O)N[C@@H](Cc1c[nH]c2ccccc12)C(=O)N[C@@H](CC(C)C)C(=O)N[C@@H](CCC(=O)O)C(=O)N[C@@H](C)C(=O)NCC(=O)NCC(=O)O)C(C)C)C(=O)O | – | female cynomolgus monkey | subcutaneous, 27 nmol/kg/day for 8 weeks, day 57 | baseline: starting body weight | body weight loss | 13%
CCCCCCOC(=O)Cc1c(C)n(C(=O)c2ccc(Cl)cc2)c2ccc(OC)cc12 | – | BALB/c mice, acetic acid writhing | intraperitoneal, 10 mg/kg, 20 min count | – | writhing count | 14.7 ± 1.89
CC(C)(O)c1ccc(N2Cc3c(ccnc3-c3ccc(F)cc3OCC(F)(F)F)C2=O)cc1 | – | Gaucher disease mouse model, brain | 30 mg/kg, 2 months once daily | baseline: vehicle | glucosylsphingosine level | 61 ± 1%
O=C1NCCC12CCN(c1c(Cl)cncc1-c1ccc(N3CCOCC3)cc1)CC2 | gene-expression microarray | Tet-O-β-catenin intestinal organoids, mouse | 2 µM, 24 h | – | number of genes altered | 34
CCOC(=O)c1cc2c(N)c(C(=O)OC)sc2nc1C | – | urea transporter knockout mice | subcutaneous, 100 mg/kg, 12 h | – | urine volume | no effect
COc1ccc2c(c1)c(CC(=O)OCC(=O)c1ccccc1)c(C)n2C(=O)c1ccc(Cl)cc1 | acetic acid writhing test | BALB/c mouse | intraperitoneal, 10 mg/kg | baseline: negative control | analgesia | 59.5%
CC(=O)N[C@@H](CC(N)=O)C(=O)NCC(=O)N[C@@H](C)C(=O)N[C@@H](C)C(N)=O | 1H NMR | sodium phosphate buffer 50 mM | pH 7.4, 46 °C | – | rate constant succinimide to α-Asp | 0.229 h⁻¹
CCCOC(=O)Cc1c(C)n(C(=O)c2ccc(Cl)cc2)c2ccc(OC)cc12 | acetic acid writhing test | BALB/c mouse | intraperitoneal, 30 mg/kg | baseline: negative control | analgesia | 80%
O=C1CCN(Cc2ccccc2)CC1C(C[N+](=O)[O-])c1ccccc1 (stereo not drawn) | – | mouse acetic acid writhing | 50 mg/kg, with: haloperidol 1 mg/kg pretreatment | – | number of writhes | 55.4 ± 1.05
Cc1ccc(-c2oc3ccccc3c(=O)c2OCc2ccccc2)cc1 | – | diabetic rat | 5 mg/kg, 28 days, p-nitrophenyl β-glucoside induced | – | serum total cholesterol | 149 ± 4.8 mg/dL
Clc1ccc2ccc3[n+](c2c1)[Ir-3]12([c]4ccccc4-3)([c]3ccccc3-c3ccc4ccc(Cl)cc4[n+]31)[n+]1ccccc1-c1cccc[n+]12.F[P-](F)(F)(F)(F)F | – | BALB/c mice, 4T1 allograft | 1, 2, 4 mg/kg | baseline: untreated | lung metastasis incidence | decreased

For quick reference, copied from above:
Structure (SMILES) | assay | system | setting | scale | measurement | result
O=C1NCCC12CCN(c1c(Cl)cncc1-c1ccc(N3CCOCC3)cc1)CC2 | gene-expression microarray | Tet-O-β-catenin intestinal organoids, mouse | 2 µM, 24 h | – | number of genes altered | 34
COc1ccc(C2CC(c3ccc(C)cc3)=Nc3ccccc3S2)cc1 (stereo not drawn) | oral glucose tolerance test | fasted normal rat, blood | oral, 10 mg/kg, 0 min, with: oral glucose 3 g/kg | – | blood glucose | 103 ± 4.03 mg/dL
Cc1ncc([N+](=O)[O-])n1CCOCc1nnc(SCC(=O)c2ccc(Br)cc2)o1 | – | – | 100 µg/mL, 45 min | – | DPPH scavenging | 42.71 ± 0.25%
